Measurements collected from several papers.
Protocols differ between the studies behind these lines. Several values in a cell are separate wells, animals, samples, runs or records.
Target: SRSF protein kinase 3 (SRPK3, Homo sapiens, UniProt Q9UPE1)

Compound | test | setting | how to read | quantity | value
Nc1ncc2c(n1)-c1c([nH]c3ccc(C4=CCOCC4)cc13)CCC2 | binding, competition with immobilised ligand | 1 µM | – | remaining binding | 100%
COCC12C(=O)NC3C4(C(OC)CC1O)C1CC5(O)C(OC)C(O)C(OC(C)=O)(C1C5OC(=O)c1ccccc1)C3(O)C(OC)C24 (stereo not shown) | kinase activity, inhibitor, ProQinase kinase profiling | 25 µM | reference: control | remaining activity | 97% and 89%
O=C(Nc1ccccc1)Nc1ccc(Cl)cc1 | binding, KINOMEscan competitive binding | concentration not given | – | inhibition | 77%
O=C(Cc1ccc(OCc2ccccc2)cc1)NC1(C(=O)O)CCN(C(=O)c2ccc(-c3cccc(Cl)c3)cc2)CC1 | enzyme activity, inhibitor | 10 µM | – | activity vs control | 175%
CNC(=O)C[C@H](Cc1ccc(C#N)cc1)NC(=O)c1cc(-c2ccc(CN[C@H](C)c3ccc(C)cc3)o2)ccc1Cl | enzyme activity, inhibitor | 1 µM | – | activity vs control | 109%
O=C(Nc1ccccc1)Nc1cccc(C(F)(F)F)c1 | binding, KINOMEscan competitive binding | concentration not given | – | inhibition | 82%
C=CC(=O)Nc1cccc(-c2cnc3[nH]cc(C(=O)NC(C)(C)C)c3n2)c1 | kinase activity | 0.1 µM | – | inhibition | 2% and -2%
COc1cc(Nc2nc(C)cc(-c3cnn4nc(OC)ccc34)n2)cc(C(F)(F)F)c1 | binding, competition with immobilised ligand | 1 µM | – | remaining binding | 65%
COc1c(Cl)cccc1Nc1c(-c2ccncc2C#C[C@@]2(C)CCCN2C(=O)/C=C/CN(C)C)[nH]c2c1C(=O)NCC2 | binding, competition with immobilised ligand | 3 µM | – | remaining binding | 100%
CN(C(=O)N(C)c1ccc(C#N)cc1)c1ccccc1 | enzyme activity, inhibitor, FRET | 10 µM | – | inhibition | 3.3%
C=C1CCCCCCCCCC(CO)C1=O (stereo not shown) | cell-free assay, competition with immobilised ligand | 10 µM | – | remaining binding | 100%
COc1cccc(NC(=O)Nc2ccccc2O)c1 | enzyme activity, inhibitor, FRET | 10 µM | – | inhibition | 72%
O=C=[N][Ru-4]123([n]4c5ccc(O)cc5c5c6c(c7cc(F)c[n+]1c7c54)C(=O)NC6=O)[S+]1CC[S+]2CC[S+]3CC1 (stereo not shown) | enzyme activity | 100 nM, human enzyme, added: 10 µM ATP | reference: untreated | remaining activity | 57%
CN1CCN(Cc2ccc(NC(=O)c3cccc(C#Cc4cnc(N)c5ncccc45)c3)cc2C(F)(F)F)CC1 | cell-free assay, competition with immobilised ligand | 0.5 µM | – | remaining binding | 65%
O=C(Nc1ccccc1)Nc1cccc(O)c1 | kinase activity, Z'-LYTE | – | – | Hill slope | 1.07
C=CC(=O)N1CCc2ccc(-n3c(=O)ccc4cnc5ccc(-c6cnn(C)c6)cc5c43)cc21 | KINOMEscan | 1 µM | reference: DMSO control | remaining binding | 95%
COc1ccc(NC(=O)Nc2ccc3c(c2)C(=O)N(C(C)CO)CC(C)C(CN(C)Cc2ccc4c(c2)OCO4)O3)cc1 (stereo not shown) | binding, competition with immobilised ligand | 10 µM | – | remaining binding | 100%
O=C(Nc1ccccc1)Nc1ccc(Cl)c(Cl)c1 | binding, KINOMEscan competitive binding | concentration not given | – | inhibition | 78%
CNS(=O)(=O)Nc1nccc(Cc2c(C)c3ccc(Oc4ncccc4F)cc3oc2=O)c1F | binding, competition with immobilised ligand | 10 µM | – | remaining binding | 96%

A few entries again:
Compound | test | setting | how to read | quantity | value
CNS(=O)(=O)Nc1nccc(Cc2c(C)c3ccc(Oc4ncccc4F)cc3oc2=O)c1F | binding, competition with immobilised ligand | 10 µM | – | remaining binding | 96%
C=CC(=O)Nc1cccc(-c2cnc3[nH]cc(C(=O)NC(C)(C)C)c3n2)c1 | kinase activity | 0.1 µM | – | inhibition | 2% and -2%
